Results of several laboratories.
Each line is one published result; not all experiments were run side by side.
EGFR: Epidermal growth factor receptor (EGFR, Homo sapiens, UniProt P00533)
EGFR G719S: Epidermal growth factor receptor (EGFR, Homo sapiens, UniProt P00533, G719S)
EGFR G719C: Epidermal growth factor receptor (EGFR, Homo sapiens, UniProt P00533, G719C)

SMILES | target | assay | setting | scale | remaining binding [%]
COc1ccc(NC(=O)Nc2ccc3c(c2)C(=O)N(C(C)CO)CC(C)C(CN(C)Cc2ccc4c(c2)OCO4)O3)cc1 (centres unmarked) | EGFR | binding, competition with immobilised ligand | 10 µM |  | 66
CNC1C[S+]2CC[S+]3CC[S+](C1)[Ru-4]321([N]=C=S)[n]2c3ccc(OC)cc3c3c4c(c5cc(F)c[n+]1c5c32)C(=O)NC4=O (centres unmarked) | EGFR | KinomeScan | 0.1 µM | relative to: untreated | 100
Cc1cnc2nc1Nc1cccc(c1)COC/C=C/COCc1cc(ccc1OCCN1CCOCC1)N2 | EGFR G719S | binding | 0.1 µM |  | 95
CN1CCN(Cc2ccc(NC(=O)c3cccc(C#Cc4cnc(N)c5ncccc45)c3)cc2C(F)(F)F)CC1 | EGFR | cell-free assay, competition with immobilised ligand | 50 nM |  | 43
COc1c(Cl)cccc1Nc1c(-c2ccncc2C#C[C@@]2(C)CCCN2C(=O)/C=C/CN(C)C)[nH]c2c1C(=O)NCC2 | EGFR G719C | cell-free assay, competition with immobilised ligand | 3 µM |  | 0
CNC(=O)C1CCN(c2cc(C)c(F)cc2NC(=O)c2ccc(-c3cc(O)ccc3C)c(C)c2)CC1 | EGFR (Homo sapiens, UniProt P00533, L858R) | binding, competition with immobilised ligand | 1 µM |  | 31
CC(C)=CC1OC(C)(C)C2C=C3C(=O)C(Cl)=CC(O)C3C3C(O)C4OC4C(=O)C132 (centres unmarked) | EGFR G719S | cell-free assay, competition with immobilised ligand | 10 µM |  | 98
CCN1CCN(Cc2ccc(C(=O)Nc3ccc(C)c(NCc4cnc5[nH]ccc5c4OC)c3)cc2C(F)(F)F)CC1 | EGFR (Homo sapiens, UniProt P00533, A750P/del747-749) | binding, competition with immobilised ligand | 1 µM |  | 2.6
CC(=O)N1c2ccc(-c3ccc(CNC(=O)c4cn5cc(-c6cnc(N)nc6)nc(N6CCOCC6)c5n4)cc3)cc2CC[C@@H]1C | EGFR | KINOMEscan | 10 µM |  | 96
Nc1ncc2c(n1)-c1c([nH]c3ccc(C4=CCOCC4)cc13)CCC2 | EGFR G719C | binding, competition with immobilised ligand | 1 µM |  | 59
C=CC(=O)N1CCc2ccc(-n3c(=O)ccc4cnc5ccc(-c6cnn(C)c6)cc5c43)cc21 | EGFR G719C | KINOMEscan | 1 µM | relative to: DMSO control | 64
C=CC(=O)N1CCCC(n2c(=O)c3ncccc3n(Cc3ccc(Oc4ccccc4)cc3)c2=O)C1 (centres unmarked) | EGFR (Homo sapiens, UniProt P00533, T790M) | cell-free assay, competition with immobilised ligand | 1 µM |  | 96
Cc1ccc(-c2c(/C=C(\C#N)C(=O)NC(C)C)n(CCCO)c3ncnc(N)c23)cc1 | EGFR (Homo sapiens, UniProt P00533, L861Q) | cell-free assay, competition with immobilised ligand | 1 µM |  | 100
CCN1CCN(Cc2ccc(NC(=O)c3ccc(C)c(NC(=O)c4cncc(-c5cccs5)c4)c3)cc2C(F)(F)F)CC1 | EGFR (Homo sapiens, UniProt P00533, del747-750/T751S) | binding, competition with immobilised ligand | 1 µM |  | 0.15
